Results of several laboratories.
Every numbered part comes from another study and shows a few of its results, in no order.

Set 1
Target: Interferon regulatory factor 5, full length, phosphomimetic (IRF5, Homo sapiens, UniProt Q13568-2, residues 1-514, S451D/S453D/S456D/S462D)
Technique: protein-binding microarray
Molecule type: double-stranded DNA, one strand shown
Sample: in vitro
Tested at: 940 nM top
Setting: 60-bp whole probe
Together with: salmon DNA 0.4 mg/ml
Relative to: random background probes
Direction: higher = stronger binding
Measurement: fitted relative affinity
Shared flanks, not repeated: GCCTAGCAC … GTCTTGATTCGCTTGACGCTGCTG
GACGGTATCCTTTTCCTGCCGTGCTAG: 0.498 z-score
GACGATCTCCTTTTCCTGACGTGCTAG: 0.864 z-score
GACGGACTGGTGTTTCGGGACGTGCTA: 0.545 z-score
TCAAAAATAGAAACTCGTACTGTGCTA: 0.527 z-score
TTAGGTTTCCCACTGCTTTAGTGCTAG: 1.49 z-score

Set 2
Target: Histone acetyltransferase KAT6A, both winged helices, GST fusion (KAT6A, Homo sapiens, UniProt Q92794, residues 1-181)
Technique: protein binding microarray
Molecule type: double-stranded DNA, one strand shown
Sample: in vitro
Tested at: not given
Setting: 8-mer, flanks averaged, mean of 2 arrays, mostly near background
Relative to: not given
Direction: higher = stronger binding
Measurement: E-score
Residues (chain): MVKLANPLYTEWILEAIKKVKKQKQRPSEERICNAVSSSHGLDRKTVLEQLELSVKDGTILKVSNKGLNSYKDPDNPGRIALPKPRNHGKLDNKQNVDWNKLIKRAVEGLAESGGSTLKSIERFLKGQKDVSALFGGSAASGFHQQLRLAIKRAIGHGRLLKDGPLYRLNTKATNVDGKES
TCGTATCA: 0.0309
CCCACTAC: -0.315
AATACATA: 0.0256
AACTCTCC: -0.142
GTTATCGA: -0.0641
ATCCCTCG: -0.0537
ATATTGAC: 0.00642
CTGTAGTC: -0.101
TAGCCGAA: 0.0423

Set 3
Target: Sal-like protein 4, full length isoform A (SALL4, Homo sapiens, UniProt Q9UJQ4, residues 1-1053)
Sequence of UniProt Q9UJQ4 (whole entry, looked up): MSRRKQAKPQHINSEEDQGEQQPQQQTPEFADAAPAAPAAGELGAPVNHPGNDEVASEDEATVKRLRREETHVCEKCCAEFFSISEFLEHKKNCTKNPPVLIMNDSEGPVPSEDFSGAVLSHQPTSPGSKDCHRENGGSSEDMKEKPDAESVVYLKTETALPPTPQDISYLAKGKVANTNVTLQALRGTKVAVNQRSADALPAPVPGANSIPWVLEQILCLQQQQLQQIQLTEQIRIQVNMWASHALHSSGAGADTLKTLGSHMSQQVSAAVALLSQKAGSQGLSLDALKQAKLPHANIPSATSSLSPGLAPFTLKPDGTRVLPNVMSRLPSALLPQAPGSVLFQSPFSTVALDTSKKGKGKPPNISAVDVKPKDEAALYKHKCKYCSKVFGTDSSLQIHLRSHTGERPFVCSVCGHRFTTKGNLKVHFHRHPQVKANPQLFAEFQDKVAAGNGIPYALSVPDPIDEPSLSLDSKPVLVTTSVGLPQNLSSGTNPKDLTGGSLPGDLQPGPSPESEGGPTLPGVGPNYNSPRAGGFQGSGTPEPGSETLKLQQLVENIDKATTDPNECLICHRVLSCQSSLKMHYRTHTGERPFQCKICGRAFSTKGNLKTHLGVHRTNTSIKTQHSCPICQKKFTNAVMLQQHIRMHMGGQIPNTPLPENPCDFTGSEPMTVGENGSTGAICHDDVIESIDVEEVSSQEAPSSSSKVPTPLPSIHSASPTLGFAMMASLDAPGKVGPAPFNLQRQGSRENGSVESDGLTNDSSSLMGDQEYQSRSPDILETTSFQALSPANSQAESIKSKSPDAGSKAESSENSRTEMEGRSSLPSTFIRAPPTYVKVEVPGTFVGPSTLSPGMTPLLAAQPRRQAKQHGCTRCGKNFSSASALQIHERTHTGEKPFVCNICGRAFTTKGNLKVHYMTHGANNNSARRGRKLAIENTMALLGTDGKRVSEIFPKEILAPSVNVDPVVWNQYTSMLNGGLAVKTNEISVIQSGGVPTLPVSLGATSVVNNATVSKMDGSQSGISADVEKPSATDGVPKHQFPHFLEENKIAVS
Technique: universal PBM
Molecule type: double-stranded DNA, one strand shown
Sample: in vitro
Tested at: 600 nM
Setting: 8-mer, flanks averaged, mean of replicates
Direction: higher = stronger binding
Measurement: E-score
GTCTTCCA: -0.0588
GGGCGTCA: -0.23
CCGAGGCG: -0.328
AGAGATAC: 0.0696
AGGGCAAA: -0.0469
CATGCAGC: -0.144
ACCCTAGA: -0.0711
AATAGGGT: 0.202

Mixed results
PhoQ, residues 284 288 289 292 302 303 HSYLQF  fold induction (PhoP, residues 12 14 15 18 19 GHCSL (Escherichia coli, UniProt P23836); Sort-seq, refers to: YFP reporter; E. coli; PhoQ-PhoP variant library, together with: 10 µM Mg2+; relative to: high Mg2+ state, higher = stronger signaling): 12.7

Repeated from above (set 3):
AGAGATAC: 0.0696
AGGGCAAA: -0.0469
